Results gathered from unrelated publications.
Parts stem from different laboratories: compare values within a part only. Values joined by “and” are separate records of one study, mostly repeats; a detail may differ.
Sequence of UniProt O94768 (whole entry, looked up): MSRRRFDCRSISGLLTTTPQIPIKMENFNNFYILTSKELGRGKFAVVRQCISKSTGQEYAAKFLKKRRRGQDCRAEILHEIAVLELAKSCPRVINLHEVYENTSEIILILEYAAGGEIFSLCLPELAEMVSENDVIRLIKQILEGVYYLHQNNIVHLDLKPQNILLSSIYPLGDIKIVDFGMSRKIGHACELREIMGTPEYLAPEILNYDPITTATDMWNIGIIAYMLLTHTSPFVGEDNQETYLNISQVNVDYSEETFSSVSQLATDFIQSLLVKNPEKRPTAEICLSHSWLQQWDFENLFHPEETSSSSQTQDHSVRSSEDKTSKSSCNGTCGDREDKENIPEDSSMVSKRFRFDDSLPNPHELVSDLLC
Sequence of UniProt Q8NFD2 (whole entry, looked up): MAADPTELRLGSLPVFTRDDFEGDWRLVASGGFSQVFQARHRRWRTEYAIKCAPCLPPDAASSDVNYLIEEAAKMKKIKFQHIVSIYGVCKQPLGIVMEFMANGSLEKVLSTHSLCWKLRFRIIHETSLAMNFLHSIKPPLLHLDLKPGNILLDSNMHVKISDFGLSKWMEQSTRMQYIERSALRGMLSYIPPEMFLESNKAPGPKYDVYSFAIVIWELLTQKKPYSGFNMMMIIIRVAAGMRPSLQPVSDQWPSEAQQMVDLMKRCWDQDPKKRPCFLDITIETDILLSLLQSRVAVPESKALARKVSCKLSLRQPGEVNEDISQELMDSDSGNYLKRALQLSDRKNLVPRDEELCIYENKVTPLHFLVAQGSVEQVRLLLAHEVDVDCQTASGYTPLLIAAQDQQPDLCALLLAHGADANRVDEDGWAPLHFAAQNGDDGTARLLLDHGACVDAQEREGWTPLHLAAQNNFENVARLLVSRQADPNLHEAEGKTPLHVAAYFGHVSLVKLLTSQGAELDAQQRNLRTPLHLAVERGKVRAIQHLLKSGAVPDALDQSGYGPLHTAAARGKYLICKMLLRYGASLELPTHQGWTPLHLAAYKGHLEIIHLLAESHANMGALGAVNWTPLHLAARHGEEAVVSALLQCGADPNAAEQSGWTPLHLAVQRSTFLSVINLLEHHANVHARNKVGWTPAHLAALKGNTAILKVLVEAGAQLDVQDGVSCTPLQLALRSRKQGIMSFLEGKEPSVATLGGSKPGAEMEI
Sequence of UniProt O43683 (whole entry, looked up): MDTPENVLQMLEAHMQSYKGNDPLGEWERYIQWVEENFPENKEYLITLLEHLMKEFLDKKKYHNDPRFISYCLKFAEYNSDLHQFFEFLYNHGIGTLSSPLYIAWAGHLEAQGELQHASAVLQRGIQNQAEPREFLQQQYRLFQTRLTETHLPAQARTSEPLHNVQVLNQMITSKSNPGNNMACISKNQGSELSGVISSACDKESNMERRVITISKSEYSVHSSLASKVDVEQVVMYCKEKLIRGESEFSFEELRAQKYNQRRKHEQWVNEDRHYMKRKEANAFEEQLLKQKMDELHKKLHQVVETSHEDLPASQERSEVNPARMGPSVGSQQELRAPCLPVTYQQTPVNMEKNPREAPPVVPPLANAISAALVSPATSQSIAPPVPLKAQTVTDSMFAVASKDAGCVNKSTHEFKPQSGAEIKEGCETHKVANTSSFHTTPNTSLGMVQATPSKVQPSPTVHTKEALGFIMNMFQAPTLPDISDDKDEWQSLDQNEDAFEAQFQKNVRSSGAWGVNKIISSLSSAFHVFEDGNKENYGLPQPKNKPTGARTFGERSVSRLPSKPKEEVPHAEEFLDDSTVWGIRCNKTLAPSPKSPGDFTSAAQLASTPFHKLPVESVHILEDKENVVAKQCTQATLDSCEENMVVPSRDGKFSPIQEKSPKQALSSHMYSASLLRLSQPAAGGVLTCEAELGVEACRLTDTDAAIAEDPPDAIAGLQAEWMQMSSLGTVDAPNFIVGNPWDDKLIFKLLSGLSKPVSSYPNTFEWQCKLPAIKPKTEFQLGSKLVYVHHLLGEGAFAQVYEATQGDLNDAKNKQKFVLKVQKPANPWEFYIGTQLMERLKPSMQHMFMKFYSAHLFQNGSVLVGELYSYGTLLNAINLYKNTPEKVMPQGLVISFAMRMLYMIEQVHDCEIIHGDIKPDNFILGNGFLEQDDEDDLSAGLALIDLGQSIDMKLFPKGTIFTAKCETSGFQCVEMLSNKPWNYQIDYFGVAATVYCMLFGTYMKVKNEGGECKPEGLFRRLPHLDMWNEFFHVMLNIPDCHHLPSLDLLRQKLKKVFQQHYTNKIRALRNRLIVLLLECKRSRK

Block 1
Cell line: HaCaT
Concentration: 100 µM
Time: 36 h
SMILES	viability [%]
CO[C@@]1(NC(=O)Cc2cccs2)C(=O)N2C(C(=O)O)=C(COC(N)=O)CS[C@@H]21	118
Nc1ncn([C@@H]2O[C@H](CO)[C@@H](O)[C@H]2O)c(=O)n1	44
COc1ccc(C[C@@H]2c3cc(OC)c(OC)cc3CC[N@+]2(C)CCC(=O)OCCCCCOC(=O)CC[N@@+]2(C)CCc3cc(OC)c(OC)cc3[C@H]2Cc2ccc(OC)c(OC)c2)cc1OC	13.7
C=CC(=O)Nc1cccc(Nc2nc(Nc3ccc(N4CCN(C(C)=O)CC4)cc3OC)ncc2C(F)(F)F)c1	5.96
N[C@H](Cc1ccccc1)C(=O)O	96.6

Block 2
Cell line: mouse MPNST tumor cells
Technique: high-content immunofluorescence imaging
Item: nuclear SOX9
Concentration: 10 µM
Time: 12 h
Notes: mean of 2 replicates
Relative to: DMSO control
Reading: higher = more nuclear SOX9
SMILES	nuclear SOX9 intensity
Oc1ccc(-c2c(-c3ccccc3)nn3c(C(F)(F)F)cc(C(F)(F)F)nc23)cc1	103 % of DMSO
CCOC(Cn1nc(-c2ccc3oc(N)nc3c2)c2c(N)ncnc21)OCC	121 % of DMSO
OC(CN1CCC(Cc2ccc(F)cc2)CC1)c1ccc(Cl)cc1 (stereo not drawn)	155 % of DMSO
O=C1Nc2ccc(Cl)cc2[C@@](C#CC2CC2)(C(F)(F)F)O1	127 % of DMSO and 123 % of DMSO

Block 3
Target: Inhibitor of nuclear factor kappa-B kinase subunit alpha (CHUK, Homo sapiens, UniProt O15111)
Sequence of UniProt O15111 (whole entry, looked up): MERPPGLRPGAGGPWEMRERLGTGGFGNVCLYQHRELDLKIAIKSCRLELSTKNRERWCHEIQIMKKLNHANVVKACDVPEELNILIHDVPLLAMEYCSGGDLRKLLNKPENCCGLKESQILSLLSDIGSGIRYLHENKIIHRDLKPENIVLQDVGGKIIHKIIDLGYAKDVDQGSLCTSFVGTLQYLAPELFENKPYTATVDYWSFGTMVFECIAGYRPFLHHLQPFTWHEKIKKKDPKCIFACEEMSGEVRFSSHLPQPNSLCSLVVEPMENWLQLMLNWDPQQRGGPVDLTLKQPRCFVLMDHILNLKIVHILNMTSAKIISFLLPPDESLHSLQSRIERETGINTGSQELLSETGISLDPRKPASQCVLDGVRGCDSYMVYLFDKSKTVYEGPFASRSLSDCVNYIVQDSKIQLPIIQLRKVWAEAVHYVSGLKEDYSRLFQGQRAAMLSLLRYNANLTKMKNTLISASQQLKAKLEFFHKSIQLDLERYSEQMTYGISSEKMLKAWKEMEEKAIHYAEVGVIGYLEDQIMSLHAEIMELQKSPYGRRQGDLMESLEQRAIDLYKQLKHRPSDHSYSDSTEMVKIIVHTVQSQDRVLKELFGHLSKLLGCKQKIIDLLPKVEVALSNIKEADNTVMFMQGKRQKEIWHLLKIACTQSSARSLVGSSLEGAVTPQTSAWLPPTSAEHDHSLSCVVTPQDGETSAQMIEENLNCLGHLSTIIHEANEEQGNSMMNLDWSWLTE
Read-out: enzyme activity
Mode: inhibitor
Concentration: 0.5 µM
Relative to: control
Structure (SMILES)	remaining activity [%]
Oc1ccc(-c2nc(-c3ccncc3)c(-c3ccc(F)cc3)[nH]2)cc1	107
Nc1[nH]nc2nc3ccccc3nc12	85.9
Nc1ncnc2n[nH]c(Nc3ccc(F)cc3)c12	99.5
COc1ccc(CNC(=O)Nc2ncc([N+](=O)[O-])s2)cc1	97.1
CNC(=O)c1cc(Oc2ccc(NC(=O)Nc3ccc(Cl)c(C(F)(F)F)c3)cc2)ccn1	99.8
N#CC(C#N)=C(N)/C(C#N)=C/c1ccc(O)cc1	94
Cn1c2ccccc2c2c3c(c4c5ccccc5n(CCC#N)c4c21)CNC3=O	102
O=C(O)c1ccc2c3c1cccc3c(=O)n1c3ccccc3nc21	114
O=C(CCCc1ccc(-c2ccccc2F)cc1)Nc1ccc(O)cc1	97.3
COc1cc2nccc(Oc3ccc(NC(=S)NC(=O)c4ccccc4C)cc3)c2cc1OC	98.3
Cc1cccc(-c2[nH]c(C(C)(C)C)nc2-c2ccc3c(c2)OCO3)n1	108
OCC(O)CCON=C1C(c2c(O)[nH]c3ccccc23)=Nc2ccccc21 (stereo not drawn)	96.6
Cn1sc(=O)n(Cc2ccccc2)c1=O	96.2
CCOC(=O)c1c(C)[nH]c(/C=C2\C(=O)Nc3ccccc32)c1C	102
Cc1nc(-c2ccccc2)c(-c2ccncc2)o1	105
COc1cc2ncnc(Nc3ccc(F)c(Cl)c3)c2cc1OCCCN1CCOCC1	94.9
COc1ccc(C(=O)Nc2sc3c(c2C(N)=O)CCCC3)cc1OC	83.3
O=c1c2ccccc2[nH]c(=S)n1CCN1CCC(=C(c2ccc(F)cc2)c2ccc(F)cc2)CC1	95
NCCNc1ncc(C(N)=O)c(Nc2cccc(C(F)(F)F)c2)n1	101
COc1cc2ncnc(Nc3ccc(Oc4ccccc4)cc3)c2cc1OC	101
O=C(Nc1cccc(Nc2cc(Nc3cccc(C(F)(F)F)c3)ncn2)c1)C1CC1	95.6
O=C1NC(=O)C(c2cn(CCCn3ccnc3)c3ccccc23)=C1Nc1ccccc1	105
COc1ccc(OC)c2c(=S)c3ccccc3[nH]c12	94.3
CC(C)[C@H](CO)Nc1nc(Nc2cc(N)cc(Cl)c2)c2ncn(C(C)C)c2n1	97.3
CN(C)c1ccc(C=C2C(=O)Nc3ccccc32)cc1	93.4

Block 4
SMILES: CC(C)n1cnc(-c2ccc(F)cc2)c1-c1ncc(C(=O)Nc2ccc(N3CCN(C)CC3)cc2)[nH]1
Technique: Phase 2a trial
Host: idiopathic pulmonary fibrosis patients
item	dose	notes	patients with adverse events
weight increased	dose not given	grade 3 maximum intensity, all arms	0%
gamma-glutamyltransferase increased	60 mg once daily	grade 5 maximum intensity	0%
respiratory tract infection	60 mg once daily	grade 5 maximum intensity	0%

Block 5
Target: Eukaryotic initiation factor 4A-I (EIF4A1, Homo sapiens, UniProt P60842, residues 1-406, full length assumed)
Sequence of UniProt P60842 (whole entry, looked up): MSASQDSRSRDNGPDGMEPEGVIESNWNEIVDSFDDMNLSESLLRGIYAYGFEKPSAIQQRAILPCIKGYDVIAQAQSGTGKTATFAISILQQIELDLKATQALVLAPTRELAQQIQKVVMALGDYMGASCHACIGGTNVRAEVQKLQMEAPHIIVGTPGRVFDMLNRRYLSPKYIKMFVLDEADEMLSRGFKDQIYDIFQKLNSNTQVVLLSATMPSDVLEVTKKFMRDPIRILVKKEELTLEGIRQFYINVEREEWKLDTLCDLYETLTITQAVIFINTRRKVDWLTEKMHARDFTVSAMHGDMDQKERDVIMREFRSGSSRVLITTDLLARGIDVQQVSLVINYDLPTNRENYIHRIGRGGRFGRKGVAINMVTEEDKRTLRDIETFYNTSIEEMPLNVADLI
Technique: RNA Bind-n-Seq
Molecule type: RNA
Sample: in vitro
Concentration: 90 pmol
Notes: 4-mer, random 30-nt RNA, single round
With: 3 µM iPr-DMDA-PatA, 2 mM ADP, 2 mM phosphate
Relative to: input library
Reading: higher = stronger binding
Strand	4-mer enrichment [fold]
AUCG	1.05
UUAG	1.09
GAGG	0.827
CCCU	0.903
AAAU	1.53
UCCA	1.07
GAAU	1.32
CCUC	0.898

Block 6
Structure (SMILES): CC(C)(O)c1cncc(-c2nc3ccc(F)cc3n2C2CC2)c1
Read-out: cell-free assay
Technique: competition with immobilised ligand
Concentration: 1 µM
target	remaining binding
Epidermal growth factor receptor (EGFR, Homo sapiens, UniProt P00533, G719C)	100%
Ankyrin repeat and protein kinase domain-containing protein 1 (ANKK1, Homo sapiens, UniProt Q8NFD2)	100%
Mitotic checkpoint serine/threonine-protein kinase BUB1 (BUB1, Homo sapiens, UniProt O43683)	99%
Serine/threonine-protein kinase 17B (STK17B, Homo sapiens, UniProt O94768)	77%

Block 7
Host: human
Sample: microsomes or S9
Concentration: 2 µM
Time: 0.5 h
Compound	remaining compound
O=C1CC2CS(=O)(=O)CC2N1c1ccc(-c2nnc3n2CCCCC3)cc1 (stereo not drawn)	> 100%
COc1cc(OC)nc(OC(C(=O)N2CCOCC2)C(C)C)n1 (stereo not drawn)	97.4%
O=C1C=C(N(Cc2ccc(Cl)nc2)C2COC2)CO1	90.2%
O=C(c1ccco1)N1CCN(C(=O)c2ccc(C[S+]([O-])Cc3ccccc3Cl)o2)CC1 (stereo not drawn)	67.9%

Single results of other studies
Compound	tested on	test	system	setting	how to read	measurement	value
CC1=C(/C=C/C(C)=C/C=C/C(C)=C/C(=O)O)C(C)(C)CCC1	HuT78	trypan blue count		concentration not given	relative to: vehicle	relative cell number	0.565 and 0.494 and 0.575
O=C1CCC(N2Cc3cc(C4CCN(Cc5ccccc5)CC4)ccc3C2=O)C(=O)N1 (stereo not drawn)			ICR mouse, male, plasma	oral, 3.0 mg/kg		oral bioavailability	57.2%
CC(C)(C(=O)O)[C@H](NC(=O)Cc1cccc(I)c1)c1ccc2oc(=O)[nH]c2c1	A375	Incucyte 3D growth		30 µM, 156 h	higher = more growth	spheroid area	9.11e+07 a.u. and 9.66e+07 a.u. and 9.18e+07 a.u. and 9.34e+07 a.u. and 8.08e+07 a.u. and 1.12e+08 a.u.
CC(=O)N[C@@H](Cc1c[nH]c2ccccc12)C(=O)N[C@@H](CCC(=O)C=[N+]=[N-])C(=O)OC(C)C		UPLC-MS/MS	EL4 tumor, C57BL/6 CES1-/- mice, tumor	subcutaneous, 0.3 mg/kg DON equivalent daily, 5 days	higher = more metabolite	salicylate level	403000 a.u. and 535000 a.u. and 596000 a.u. and 711000 a.u. and 576000 a.u. and 545000 a.u.

For quick reference, copied from above (block 3):
Structure (SMILES)	remaining activity [%]
OCC(O)CCON=C1C(c2c(O)[nH]c3ccccc23)=Nc2ccccc21 (stereo not drawn)	96.6
O=C1NC(=O)C(c2cn(CCCn3ccnc3)c3ccccc23)=C1Nc1ccccc1	105
O=C(O)c1ccc2c3c1cccc3c(=O)n1c3ccccc3nc21	114
N#CC(C#N)=C(N)/C(C#N)=C/c1ccc(O)cc1	94
O=c1c2ccccc2[nH]c(=S)n1CCN1CCC(=C(c2ccc(F)cc2)c2ccc(F)cc2)CC1	95
O=C(CCCc1ccc(-c2ccccc2F)cc1)Nc1ccc(O)cc1	97.3
